Results collected from several papers.
Parts stem from different laboratories: compare values within a part only.

Set 1
Target: Interferon regulatory factor 7, full length, phosphomimetic (IRF7, Homo sapiens, UniProt Q92985, residues 1-503, S101K/S471D/S472D/S475D/S476D/S477D/S483D/S484D/S487D)
Method: protein-binding microarray
Form: double-stranded DNA, one strand shown
Sample: in vitro
Tested at: 250 nM
Setting: 60-bp whole probe
Added: salmon DNA 0.4 mg/ml
Relative to: random background probes
Direction: higher = stronger binding
Measurement: log fluorescence
All sequences stand within: GCCTAGCAC … GTGCTAGGTCTTGATTCGCTTGACGCTGCTG
Target sequence (chain): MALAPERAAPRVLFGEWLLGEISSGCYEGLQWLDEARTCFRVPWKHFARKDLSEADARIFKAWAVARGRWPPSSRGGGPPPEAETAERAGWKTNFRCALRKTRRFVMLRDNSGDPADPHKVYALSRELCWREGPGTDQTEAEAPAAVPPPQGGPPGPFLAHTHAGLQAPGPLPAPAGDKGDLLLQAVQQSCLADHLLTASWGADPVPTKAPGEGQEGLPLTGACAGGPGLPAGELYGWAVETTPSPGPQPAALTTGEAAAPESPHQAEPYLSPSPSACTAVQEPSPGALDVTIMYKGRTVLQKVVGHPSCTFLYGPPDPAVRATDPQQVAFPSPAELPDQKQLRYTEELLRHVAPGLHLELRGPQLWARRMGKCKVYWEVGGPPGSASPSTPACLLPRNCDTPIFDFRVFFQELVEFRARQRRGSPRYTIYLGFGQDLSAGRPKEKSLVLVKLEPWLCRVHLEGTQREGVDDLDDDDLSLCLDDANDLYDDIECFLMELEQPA
Strand = GACGAACTGAGACTGTAGAC; result = 0.0311 z-score
Strand = GACGGTCTGGGTCTCGGGAC; result = -0.207 z-score
Strand = CTGGTTTTACTTTCTATCTC; result = 2.99 z-score
Strand = GGTCATGTCTGTGTCACAGA; result = -0.664 z-score
Strand = TTAGGACTGGCTCTCGGTTA; result = -0.458 z-score
Strand = GACGCTTCCAGTTTCGAGAC; result = 4.15 z-score
Strand = TTAGGACTGTGTATCGGTTA; result = 0.218 z-score

Set 2
Target: POU domain, class 5, transcription factor 1, POU domain (Pou5f1, Mus musculus, UniProt P20263, residues 131-289)
UniProt P20263, sequence (131-289, looked up): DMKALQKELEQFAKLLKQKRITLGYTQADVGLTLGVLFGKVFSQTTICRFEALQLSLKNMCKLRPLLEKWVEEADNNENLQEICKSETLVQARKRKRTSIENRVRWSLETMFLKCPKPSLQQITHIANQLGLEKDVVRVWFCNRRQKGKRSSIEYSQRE
Method: Spec-seq
Form: double-stranded DNA, one strand shown
Sample: in vitro
Tested at: not given
Setting: whole probe, mean of replicates
Relative to: not given
Direction: lower = stronger binding
Measurement: relative binding energy
All sequences stand within: GAGTCGTCTCGTCAGCAC … CCGTAGAGCACTCAGGTC
Strand = ATGCACAC; result = -0.0185 ln ratio
Strand = ATGCGGCT; result = 0.377 ln ratio
Strand = ATGCCGTG; result = 0.852 ln ratio
Strand = ATGCTCTC; result = 0.812 ln ratio
Strand = ATTGTGAT; result = 0.42 ln ratio
Strand = TGGATAAT; result = 0.591 ln ratio

Set 3
Target: RNA binding protein fox-1 homolog 2, RRM domain, GST-SBP tag (RBFOX2, Homo sapiens, UniProt O43251-10, residues 100-194)
Method: RNA Bind-n-Seq
Form: RNA
Sample: in vitro
Tested at: 365 nM
Setting: natural RNA segment, single round, ends assumed
Relative to: no-protein control
Direction: higher = stronger binding
Measurement: RBNS enrichment (R)
All sequences stand within: GGGAGUUCUACAGUCCGACGAUC … UGGAAUUCUCGGGUGCCAA
Target sequence (chain): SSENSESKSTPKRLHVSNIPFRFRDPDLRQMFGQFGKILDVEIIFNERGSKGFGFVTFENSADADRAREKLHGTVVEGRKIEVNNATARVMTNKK
Strand = UCAUUAUGAAAGACAAAAAGCAUCACAAUAAGGCUUCCAGGUAGCCCUGUUCCCUAAUAGAAACAUUCCCCUUGUUUUCCAGCAGUGGGUGGCUUCCUCGAACGAUUAAA; result = 0.549
Strand = UUUUGGAAGGUCAUCAGAUUGUGAGACUGCUUCCUUGAAACAUUUUUGUGCUAUUGUUUUAAAAAAUAAUAAUUAAAAAACAGUUGGCGUUAAUAAAAAUGUCAAUGUGA; result = 0.407
Strand = CUGUCAGAGCCCACCUAGAAGCAGGCUCCUAGUGAUACUUUGUUUCCAAGGCAGAAGUGGCCCAUGAGUGGCCCCAGAGCAGAGGUGCCCCAGGCAGUGCAGCUCCCUGG; result = 0.29
Strand = AUCUUUUUUUAAUGGAAUGUGGUACAAAUUGUUCAUGUUACCAAAGCAAUAUUUCCCUGGAAUUUAAUUCAAAGUUUGUGGCAUACAACCUGAGCCUUUUCUUAUAUAAG; result = 0.916
Strand = CCUUCUGUUGUUUAUCUUACCUGCAGAUAUUAAGAAUGUAUGCAUUAUGUAAAAUGCUCAAUUAUAUAUUUUUGUUGAGUUUUUUAAUUAAAGACUUGUAAAAAAAAAAA; result = 2.38
Strand = UGACAGUUAACAUUCUGUUGUUUAUUAUUGCCUUUCUCCACCUUAGAGAGCCAUAAAUAACUCUCUGGUGAAGUGAUUUGCUAUAAUGGGGGUGAGGAGUGGGGAGACUU; result = 0.469

Single results of other studies
Substance = PhoQ, residues 284 288 289 292 302 303 AEGLLW; target = PhoP, residues 12 14 15 18 19 LHSVW (Escherichia coli, UniProt P23836); assay = Sort-seq, refers to: YFP reporter; test system = E. coli; setting = PhoQ-PhoP variant library, added: 10 µM Mg2+; how to read = relative to: high Mg2+ state, higher = stronger signaling; measurement = fold induction; result = 1.61

For quick reference, copied from above (set 3):
Strand = AUCUUUUUUUAAUGGAAUGUGGUACAAAUUGUUCAUGUUACCAAAGCAAUAUUUCCCUGGAAUUUAAUUCAAAGUUUGUGGCAUACAACCUGAGCCUUUUCUUAUAUAAG; result = 0.916
Strand = CCUUCUGUUGUUUAUCUUACCUGCAGAUAUUAAGAAUGUAUGCAUUAUGUAAAAUGCUCAAUUAUAUAUUUUUGUUGAGUUUUUUAAUUAAAGACUUGUAAAAAAAAAAA; result = 2.38
Strand = UGACAGUUAACAUUCUGUUGUUUAUUAUUGCCUUUCUCCACCUUAGAGAGCCAUAAAUAACUCUCUGGUGAAGUGAUUUGCUAUAAUGGGGGUGAGGAGUGGGGAGACUU; result = 0.469
